Measurements pooled from the literature.
A part holds a random share of what one study measured.
Chain of UniProt P08913 (whole entry, looked up): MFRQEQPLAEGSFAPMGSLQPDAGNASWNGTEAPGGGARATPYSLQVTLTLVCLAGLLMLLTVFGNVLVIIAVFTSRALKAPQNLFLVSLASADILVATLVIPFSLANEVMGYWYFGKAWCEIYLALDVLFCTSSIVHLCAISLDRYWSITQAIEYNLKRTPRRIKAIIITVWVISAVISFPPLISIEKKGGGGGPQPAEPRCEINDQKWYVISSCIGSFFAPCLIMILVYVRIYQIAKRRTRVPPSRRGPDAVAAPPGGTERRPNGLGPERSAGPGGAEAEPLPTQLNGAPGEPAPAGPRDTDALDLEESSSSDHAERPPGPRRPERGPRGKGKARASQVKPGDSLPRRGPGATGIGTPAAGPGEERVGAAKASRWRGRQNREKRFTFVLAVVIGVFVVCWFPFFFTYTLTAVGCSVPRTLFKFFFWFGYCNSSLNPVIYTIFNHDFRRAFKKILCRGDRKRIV
Chain of UniProt P28221 (whole entry, looked up): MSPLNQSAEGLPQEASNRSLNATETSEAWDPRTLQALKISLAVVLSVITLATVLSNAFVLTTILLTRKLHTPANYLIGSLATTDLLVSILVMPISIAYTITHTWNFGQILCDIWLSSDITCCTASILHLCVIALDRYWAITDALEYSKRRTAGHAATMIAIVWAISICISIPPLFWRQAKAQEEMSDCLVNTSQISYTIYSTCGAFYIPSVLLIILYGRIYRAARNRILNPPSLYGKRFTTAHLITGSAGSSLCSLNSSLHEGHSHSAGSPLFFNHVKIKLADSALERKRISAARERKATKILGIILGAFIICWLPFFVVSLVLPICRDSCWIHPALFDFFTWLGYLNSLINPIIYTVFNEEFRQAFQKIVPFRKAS

Block 1
Target: Dual specificity tyrosine-phosphorylation-regulated kinase 1A (DYRK1A, Homo sapiens, UniProt Q13627)
Effect on: enzyme activity
Mode: inhibitor
Tested at: 0.5 µM
Baseline: control
`Cc1ccc(S(=O)(=O)/C=C/C#N)cc1` has a remaining activity of 107%.
For `c1ccc(-c2n[nH]c3c2oc2ccccc23)cc1`, the remaining activity was 114%.
With `COc1ccc2c(c1)c(C1=C(c3c[nH]c4ccccc34)C(=O)NC1=O)cn2CCCN(C)C` the remaining activity was 84.7%.
The remaining activity of `O=C1Nc2ccccc2/C1=C\c1c(Cl)[nH]c2ccccc12` is reported as 107%.
`c1ccc2c(-c3ccncc3)c[nH]c2c1` has a remaining activity of 77.6%.
`O=c1cc(N2CCOCC2)oc2c(-c3ccccc3)cccc12` has a remaining activity of 97.3%.
`CN(C)S(=O)(=O)c1ccc2c(c1)/C(=C/c1cc3c([nH]1)CCCC3)C(=O)N2` gave a remaining activity of 81.1%.
For `O=C(c1cc2cc(O)ccc2[nH]1)c1cc2cc(O)ccc2[nH]1`, the remaining activity was 103%.
For `CCCCc1c(-c2ccc(OC)cc2)[nH]c2nccnc12`, the remaining activity was 102%.
With `O=Nc1c(-c2c(O)[nH]c3cc(Br)ccc23)[nH]c2ccccc12` the remaining activity was 101%.
`N#Cc1cnc2cnc(NCc3cccnc3)cc2c1Nc1ccc(F)c(Cl)c1` has a remaining activity of 52.7%.

Block 2
Organism: Sarcocystis neurona
Effect on: parasite growth
Tested at: 10 µM
Time: 96 h
Setting: second screen
Baseline: untreated
Under “log2 fold change”, `CC(C)(C)NC[C@H](O)COc1nsnc1N1CCOCC1` is recorded as 0.5.
`CCOC(=O)CCC(=O)O[C@H]1[C@H](O[C@@H]2[C@@H](C)[C@H](O[C@H]3C[C@@](C)(OC)[C@@H](O)[C@H](C)O3)[C@@H](C)C(=O)O[C@H](CC)[C@@](C)(O)[C@H](O)[C@@H](C)C(=O)[C@H](C)C[C@@]2(C)O)O[C@H](C)C[C@@H]1N(C)C` — result for “log2 fold change”: -0.32.
`C[C@@H]1C[C@H]2[C@@H]3CCC4=CC(=O)C=C[C@]4(C)[C@@]3(F)[C@@H](O)C[C@]2(C)[C@H]1C(=O)CO`: “log2 fold change” -0.04.
Under “log2 fold change”, `CN(C/C=C/C#CC(C)(C)C)Cc1cccc2ccccc12` is recorded as 0.65.
`O=C(C1CCCCC1)N1CC(=O)N2CCc3ccccc3C2C1` (stereo not drawn): “log2 fold change” 0.36.
For `CCN(CC)CC(=O)Nc1c(C)cccc1C`, “log2 fold change” read 0.6.
Under “log2 fold change”, `Nc1ccn([C@H]2CC[C@@H](CO)O2)c(=O)n1` is recorded as 0.33.
Under “log2 fold change”, `CCOC(=O)[C@H](CCc1ccccc1)N[C@@H](C)C(=O)N1CCC[C@H]1C(=O)O` is recorded as 0.11.
`CCC(=O)NS(=O)(=O)c1ccc(-c2c(-c3ccccc3)noc2C)cc1` — result for “log2 fold change”: 0.18.
`CC(C)c1ccc2oc3nc(N)c(C(=O)O)cc3c(=O)c2c1`: “log2 fold change” 3.27.

Single results of other studies
With `CCC(=O)N[C@@H]1CC[C@H](C(=O)N(C)c2ccc(-c3nc4ccccc4o3)cc2)C1` the inhibition was -8.27% (5-hydroxytryptamine receptor 1D (HTR1D, Homo sapiens, UniProt P28221); ligand displacement, radioligand; 10 µM).
The binding of `C[C@@H]1CN(c2ccc(-c3cc(C(=O)NCCOCCOCCOCCOCCNC(=O)/C=C/c4[nH]cc(C(=O)N[C@@H](CC(N)=O)c5ccc(F)c(Cl)c5)c4-c4ccc(Cl)cc4F)ccc3F)cc2NC(=O)c2c[nH]c(=O)cc2C(F)(F)F)C[C@H](C)N1C` is reported as 43.1% (WD repeat-containing protein 5 (WDR5, Homo sapiens, UniProt P61964); SPR; concentration not given).
`NS(=O)(=O)c1cc(NC(=O)C2(c3ccccc3Cl)CC2)ccc1Oc1cccc(Cl)c1` has an inhibition of 40.8% (Alpha-2A adrenergic receptor (ADRA2A, Homo sapiens, UniProt P08913); cell-free assay; 10 µM).

For quick reference, copied from above (block 2):
`O=C(C1CCCCC1)N1CC(=O)N2CCc3ccccc3C2C1` (stereo not drawn): “log2 fold change” 0.36.
For `CCN(CC)CC(=O)Nc1c(C)cccc1C`, “log2 fold change” read 0.6.
Under “log2 fold change”, `Nc1ccn([C@H]2CC[C@@H](CO)O2)c(=O)n1` is recorded as 0.33.
